Results from different studies.
Protocols differ between the studies behind these lines. Numbers after ± are the reported error.
Cell line: A549

SMILES = CC1(C(=O)O)CCC2(C(=O)O)CCC3(C)C(=CCC4C5(C)CCC(O)C(C)(C)C5CCC43C)C2C1 (stereo not drawn); assay = cell growth or viability, MTT; conditions = 72 h; quantity = IC50; result = > 100 µM
SMILES = CCCCn1cc(C(=O)O)c(=O)c2cc(F)c3c(nnn3-c3cccc(OC)c3)c21; assay = cell growth or viability, SRB; quantity = IC50; result = 164 µM
SMILES = CC(=O)OCC1=CCC2[C@]3(C)COC(c4ccccc4)O[C@@H]3CC[C@@]2(C)[C@@H]1/C=C/C1=CCOC1=O (stereo partly drawn); assay = MTT; conditions = 20 µM, 48 h, 10% FBS; quantity = growth inhibition; result = 48.22 ± 0.27%
SMILES = COc1ccc2c(O)c(C(=O)Nc3ccc(CN)cc3)ccc2c1; conditions = 48 h; quantity = CC50; result = > 40 µM
SMILES = COc1cc2c(cc1O)[C@]1(O)C(=O)c3c(O)cc4c(c3O[C@@H]1CO2)C=CC(C)(C)O4; assay = cell growth or viability, MTT; conditions = 50 µg/mL; quantity = viability; result = 11.4%
SMILES = [Cl-].[Cl-].[Ru+2].c1ccc(-c2ccccn2)nc1.c1ccc(-c2ccccn2)nc1.c1ccc(-c2ccnc3c2ccc2c(-c4ccccc4)ccnc23)cc1; assay = resazurin; conditions = 72 h, with: 450 nm light, 29.1 J/cm2; how to read = reference: dark IC50 over light IC50; quantity = phototoxicity index; result = 28.4
SMILES = CCCCn1cc(C(=O)O)c(=O)c2cc(F)c3c(nnn3-c3ccccc3OC)c21; assay = cell growth or viability, SRB; quantity = IC50; result = 133 µM
SMILES = N=C(NO)NN=Cc1nccc2ccccc12; assay = morphology; quantity = cytotoxic concentration; result = > 50 µM
SMILES = CC(C)=CCc1cc(-c2coc3cc(O)c(CC=C(C)C)c(O)c3c2=O)ccc1O; assay = cell growth or viability, MTT; conditions = 6.25 µg/mL; quantity = viability; result = 107%
SMILES = CCCC1OC2CC3C4CCC5=CC(=O)C=CC5(C)C4C(O)CC3(C)C2(C(=O)COC(=O)CN2CCOCC2)O1 (stereo not drawn); assay = MTT; conditions = 72 h; quantity = IC5; result = 43.3 ± 0.42 nM
SMILES = CCCCn1cc(C(=O)O)c(=O)c2cc(F)c(Nc3cccc(OC)c3)c([N+](=O)[O-])c21; assay = cell growth, SRB; conditions = 72 h; quantity = IC50; result = 34.3 ± 5.26 µg/mL
SMILES = FC(F)(F)c1ccnc(-c2cc(C(F)(F)F)ccn2)c1.FC(F)(F)c1ccnc(-c2cc(C(F)(F)F)ccn2)c1.[Cl-].[Cl-].[Ru+2].c1cnc2c(c1)ccc1cccnc12; assay = resazurin; conditions = concentration not given, normoxia, visible light; quantity = photocytotoxicity; result = inactive
SMILES = Cc1cccc(-c2cccc(C)n2)n1.[Cl-].[Cl-].[Ru+2].c1ccc(-c2ccccn2)nc1.c1ccc(-c2ccccn2)nc1; assay = resazurin; conditions = 72 h, with: 450 nm light, 29.1 J/cm2; how to read = reference: dark IC50 over light IC50; quantity = phototoxicity index; result = > 4.4
SMILES = CC(C)=CCc1c2c(c(O)c3c(=O)c(-c4ccc(O)cc4)coc13)CC(C(C)(C)O)O2 (stereo not drawn); assay = cell growth or viability, MTT; conditions = 12.5 µg/mL; quantity = viability; result = 112%
SMILES = CC1(C)[C@@H](O)CC[C@]2(C)[C@H]3CC=C4[C@@H]5C[C@](C)(CO)CC[C@]5(C(=O)O)CC[C@@]4(C)[C@]3(C)CC[C@@H]12; assay = cell growth or viability, MTT; conditions = 72 h; quantity = IC50; result = > 100 µM
SMILES = CSCc1ccccn1.F[P-](F)(F)(F)(F)F.F[P-](F)(F)(F)(F)F.[Ru+2].c1ccc(-c2ccccn2)nc1.c1ccc(-c2ccnc3c2ccc2c(-c4ccccc4)ccnc23)cc1; conditions = 24 h, near dark EC50; how to read = reference: intracellular over incubation concentration; quantity = cellular accumulation ratio; result = 5
SMILES = CCCCn1cc(C(=O)O)c(=O)c2cc(F)c(Nc3cc(OC)c(OC)c(OC)c3)c([N+](=O)[O-])c21; assay = cell growth, SRB; conditions = 72 h; quantity = IC50; result = 22.1 ± 3.24 µg/mL
SMILES = NCc1ccc(NC(=O)c2cc3ccccc3cc2O)cc1; conditions = 48 h; quantity = CC50; result = > 40 µM
SMILES = CCCCn1cc(C(=O)O)c(=O)c2cc(F)c3c(nnn3-c3ccc(OC)cc3)c21; assay = cell growth, SRB; conditions = 72 h; quantity = IC50; result = 51.4 ± 3.43 µg/mL
SMILES = [Cl-].[Cl-].[Ru+2].c1ccc2nc(-c3ccc4ccccc4n3)ccc2c1.c1ccc2nc(-c3ccc4ccccc4n3)ccc2c1.c1cnc2c(c1)ccc1cccnc12; assay = resazurin; conditions = 72 h, with: 450 nm light, 29.1 J/cm2; how to read = reference: dark IC50 over light IC50; quantity = phototoxicity index; result = 3.4
SMILES = COc1ccc(-c2coc3c(CC=C(C)C)c(O)c(CC=C(C)C)c(O)c3c2=O)cc1O; assay = cell growth or viability, MTT; conditions = 50 µg/mL; quantity = viability; result = 27.1%
SMILES = Cc1ccc(NC(=O)N/N=C2\CC3(CCN(C)CC3)Oc3ccccc32)cc1; assay = cell growth, MTT; conditions = 48 h; quantity = IC50; result = 5.13 ± 0.23 µM
SMILES = CC(C)=CCCC(C)(O)C1CCC2(C)C1C(O)CC1C3(C)CCC(OC4OC(COC(=O)CCCCCCCCCCN5C(=O)C=CC5=O)C(O)C(OC(=O)CCCCCCCCCCN5C(=O)C=CC5=O)C4O)C(C)(C)C3CCC12C (stereo not drawn); assay = MTT; conditions = 5 to 100 µM; quantity = cytotoxicity; result = not toxic
SMILES = Cc1cc(N)c2cc(NC(=O)c3ccc4c(-c5ccccc5O)cccc4c3)ccc2n1; assay = cell growth or viability, MTS; quantity = CC50; result = 27.3 µM
SMILES = C=C1CC[C@]2(C(=O)O)CC[C@]3(C)C(=CC[C@@H]4[C@@]5(C)CC[C@H](O)C(C)(C)[C@@H]5CC[C@]43C)[C@@H]2C1; assay = cell growth or viability, MTT; conditions = 72 h; quantity = IC50; result = 48.8 µM
SMILES = Cc1ccc(O)c(C=NNC(=N)NO)n1; assay = cell morphology; conditions = up to 150 µM; quantity = cytotoxicity; result = not toxic
SMILES = COc1ccc2ccc(C(=O)Nc3ccc(CN)cc3)c(O)c2c1; conditions = 48 h; quantity = CC50; result = > 40 µM

Excerpt of the above:
SMILES = CC(C)=CCCC(C)(O)C1CCC2(C)C1C(O)CC1C3(C)CCC(OC4OC(COC(=O)CCCCCCCCCCN5C(=O)C=CC5=O)C(O)C(OC(=O)CCCCCCCCCCN5C(=O)C=CC5=O)C4O)C(C)(C)C3CCC12C (stereo not drawn); assay = MTT; conditions = 5 to 100 µM; quantity = cytotoxicity; result = not toxic
SMILES = COc1ccc2c(O)c(C(=O)Nc3ccc(CN)cc3)ccc2c1; conditions = 48 h; quantity = CC50; result = > 40 µM
